Results gathered from unrelated publications.
Numbered parts are unrelated; each lists some results of a single study. Several values in a cell are separate wells, animals, samples, runs or records.
Chain of UniProt P42336 (whole entry, unmodified, looked up): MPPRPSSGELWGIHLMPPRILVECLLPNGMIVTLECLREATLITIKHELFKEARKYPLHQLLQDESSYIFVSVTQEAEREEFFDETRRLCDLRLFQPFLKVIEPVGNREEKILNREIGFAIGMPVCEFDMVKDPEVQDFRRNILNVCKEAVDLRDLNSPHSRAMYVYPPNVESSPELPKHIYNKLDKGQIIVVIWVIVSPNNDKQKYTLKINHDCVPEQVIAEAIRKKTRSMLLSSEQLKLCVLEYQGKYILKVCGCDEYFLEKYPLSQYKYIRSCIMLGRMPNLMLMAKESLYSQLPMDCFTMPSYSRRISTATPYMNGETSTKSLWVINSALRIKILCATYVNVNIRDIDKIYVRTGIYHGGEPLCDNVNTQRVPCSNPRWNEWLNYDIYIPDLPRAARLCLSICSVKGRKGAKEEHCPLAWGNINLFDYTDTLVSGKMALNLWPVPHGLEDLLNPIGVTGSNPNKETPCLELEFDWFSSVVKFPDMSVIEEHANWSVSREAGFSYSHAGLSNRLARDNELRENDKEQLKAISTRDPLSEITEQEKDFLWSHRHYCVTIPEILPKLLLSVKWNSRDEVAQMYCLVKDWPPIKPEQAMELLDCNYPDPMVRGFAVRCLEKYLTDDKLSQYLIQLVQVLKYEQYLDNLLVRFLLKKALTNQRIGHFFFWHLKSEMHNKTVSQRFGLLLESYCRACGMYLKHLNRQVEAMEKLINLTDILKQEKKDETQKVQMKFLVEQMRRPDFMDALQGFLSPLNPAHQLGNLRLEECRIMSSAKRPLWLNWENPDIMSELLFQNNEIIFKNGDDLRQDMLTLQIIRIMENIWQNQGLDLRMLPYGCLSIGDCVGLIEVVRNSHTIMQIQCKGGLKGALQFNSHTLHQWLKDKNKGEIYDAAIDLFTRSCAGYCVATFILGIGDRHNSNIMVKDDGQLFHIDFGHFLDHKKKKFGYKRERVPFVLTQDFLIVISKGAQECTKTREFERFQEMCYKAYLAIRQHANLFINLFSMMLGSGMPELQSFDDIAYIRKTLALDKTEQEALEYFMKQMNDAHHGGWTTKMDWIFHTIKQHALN
Chain of UniProt Q8NE63 (whole entry, looked up): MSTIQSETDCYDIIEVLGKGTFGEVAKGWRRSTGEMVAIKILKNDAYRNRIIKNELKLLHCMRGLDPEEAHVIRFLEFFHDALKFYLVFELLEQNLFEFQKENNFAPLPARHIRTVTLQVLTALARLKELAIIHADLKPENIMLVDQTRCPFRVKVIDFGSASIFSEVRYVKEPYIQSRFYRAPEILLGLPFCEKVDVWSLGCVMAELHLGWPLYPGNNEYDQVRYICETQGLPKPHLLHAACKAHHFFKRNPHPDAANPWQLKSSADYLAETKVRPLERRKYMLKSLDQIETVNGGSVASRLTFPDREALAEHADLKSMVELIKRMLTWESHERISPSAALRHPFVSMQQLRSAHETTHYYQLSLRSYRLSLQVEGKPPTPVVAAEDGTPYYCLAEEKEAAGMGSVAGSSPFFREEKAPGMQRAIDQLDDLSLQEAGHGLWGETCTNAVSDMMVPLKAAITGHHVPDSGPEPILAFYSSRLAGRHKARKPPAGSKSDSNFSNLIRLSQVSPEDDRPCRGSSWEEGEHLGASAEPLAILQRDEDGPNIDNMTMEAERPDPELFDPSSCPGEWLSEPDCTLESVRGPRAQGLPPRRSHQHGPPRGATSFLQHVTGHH
Chain of UniProt Q9H4A3 (whole entry, looked up): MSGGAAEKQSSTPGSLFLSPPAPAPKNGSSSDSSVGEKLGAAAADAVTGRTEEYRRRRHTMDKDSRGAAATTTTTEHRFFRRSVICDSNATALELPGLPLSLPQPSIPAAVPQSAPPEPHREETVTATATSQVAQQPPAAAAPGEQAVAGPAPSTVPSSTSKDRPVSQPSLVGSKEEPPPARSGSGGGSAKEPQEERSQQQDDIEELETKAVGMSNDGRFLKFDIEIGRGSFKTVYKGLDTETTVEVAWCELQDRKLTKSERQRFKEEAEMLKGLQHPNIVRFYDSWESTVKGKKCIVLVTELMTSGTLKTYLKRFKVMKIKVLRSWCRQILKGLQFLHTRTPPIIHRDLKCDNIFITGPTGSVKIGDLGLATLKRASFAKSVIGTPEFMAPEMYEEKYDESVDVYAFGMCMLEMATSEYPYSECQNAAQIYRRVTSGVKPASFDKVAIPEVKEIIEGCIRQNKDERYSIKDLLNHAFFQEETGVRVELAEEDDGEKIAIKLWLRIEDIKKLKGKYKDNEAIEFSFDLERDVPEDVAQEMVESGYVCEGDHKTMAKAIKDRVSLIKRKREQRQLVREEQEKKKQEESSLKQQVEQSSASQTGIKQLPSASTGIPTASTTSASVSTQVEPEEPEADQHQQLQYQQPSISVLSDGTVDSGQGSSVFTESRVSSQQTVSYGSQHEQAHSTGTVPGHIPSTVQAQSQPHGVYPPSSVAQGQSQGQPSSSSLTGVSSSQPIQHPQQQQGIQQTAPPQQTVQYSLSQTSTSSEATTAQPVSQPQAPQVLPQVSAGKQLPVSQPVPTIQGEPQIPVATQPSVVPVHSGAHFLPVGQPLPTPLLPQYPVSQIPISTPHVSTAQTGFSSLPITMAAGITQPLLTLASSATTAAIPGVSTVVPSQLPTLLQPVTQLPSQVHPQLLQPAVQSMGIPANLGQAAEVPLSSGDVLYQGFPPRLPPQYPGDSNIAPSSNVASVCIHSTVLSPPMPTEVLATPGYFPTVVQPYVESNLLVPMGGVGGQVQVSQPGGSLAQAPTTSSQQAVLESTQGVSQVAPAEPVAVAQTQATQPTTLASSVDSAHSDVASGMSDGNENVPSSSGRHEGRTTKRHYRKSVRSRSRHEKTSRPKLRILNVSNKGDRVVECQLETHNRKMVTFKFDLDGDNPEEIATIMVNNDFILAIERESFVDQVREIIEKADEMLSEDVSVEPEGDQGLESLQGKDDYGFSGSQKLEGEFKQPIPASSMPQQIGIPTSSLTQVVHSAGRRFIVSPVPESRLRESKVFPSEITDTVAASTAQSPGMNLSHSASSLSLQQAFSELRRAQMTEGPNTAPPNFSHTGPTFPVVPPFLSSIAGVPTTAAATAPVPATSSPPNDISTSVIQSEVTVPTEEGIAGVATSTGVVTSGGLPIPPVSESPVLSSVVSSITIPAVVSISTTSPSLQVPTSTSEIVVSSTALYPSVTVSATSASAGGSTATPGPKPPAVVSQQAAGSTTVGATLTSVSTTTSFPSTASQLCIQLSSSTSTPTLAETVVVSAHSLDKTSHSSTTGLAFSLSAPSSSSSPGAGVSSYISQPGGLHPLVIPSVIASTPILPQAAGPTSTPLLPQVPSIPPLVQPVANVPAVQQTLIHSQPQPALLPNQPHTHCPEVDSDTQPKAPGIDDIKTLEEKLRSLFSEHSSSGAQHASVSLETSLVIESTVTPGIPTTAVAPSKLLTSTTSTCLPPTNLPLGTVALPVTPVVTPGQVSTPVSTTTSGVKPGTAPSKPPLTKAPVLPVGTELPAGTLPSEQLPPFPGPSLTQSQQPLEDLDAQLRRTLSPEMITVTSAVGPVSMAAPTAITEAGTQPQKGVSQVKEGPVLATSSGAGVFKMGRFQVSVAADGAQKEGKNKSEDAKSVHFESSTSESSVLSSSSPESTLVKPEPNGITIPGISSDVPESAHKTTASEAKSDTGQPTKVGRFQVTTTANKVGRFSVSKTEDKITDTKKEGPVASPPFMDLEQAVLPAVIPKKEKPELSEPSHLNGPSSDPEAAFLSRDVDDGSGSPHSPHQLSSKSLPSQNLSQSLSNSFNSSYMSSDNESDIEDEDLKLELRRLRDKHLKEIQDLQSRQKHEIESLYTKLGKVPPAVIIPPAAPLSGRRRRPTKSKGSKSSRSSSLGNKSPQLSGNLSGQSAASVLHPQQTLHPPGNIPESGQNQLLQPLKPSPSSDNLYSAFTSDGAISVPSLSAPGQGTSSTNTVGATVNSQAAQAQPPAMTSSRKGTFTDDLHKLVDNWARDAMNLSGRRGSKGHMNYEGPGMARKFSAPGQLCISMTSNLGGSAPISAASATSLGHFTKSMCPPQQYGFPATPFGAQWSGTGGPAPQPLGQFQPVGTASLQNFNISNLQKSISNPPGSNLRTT

Sample 1 — read-out: cell-free assay; method: competition with immobilised ligand; concentration: 1 µM
SMILES: CS(=O)(=O)NCC[C@H](NC(=O)c1cncc2c1cnn2-c1ccc(F)cc1)c1ccnc(S(C)(=O)=O)c1
| target | remaining binding [%] |
| --- | --- |
| FRK (Homo sapiens, UniProt P42685) | 100 |
| EIF2AK1 (Homo sapiens, UniProt Q9BQI3) | 100 |
| PIK3CA (Homo sapiens, UniProt P42336, M1043I) | 95 |
| SLK (Homo sapiens, UniProt Q9H2G2) | 100 |
| PIP4K2C (Homo sapiens, UniProt Q8TBX8) | 0 |
| CSNK1G3 (Homo sapiens, UniProt Q9Y6M4) | 96 |
| CDK18 (Homo sapiens, UniProt Q07002) | 100 |
| EPHA4 (Homo sapiens, UniProt P54764) | 100 |
| MAPK1 (Homo sapiens, UniProt P28482) | 100 |
| PIK3C2G (Homo sapiens, UniProt O75747) | 86 |
| WNK1 (Homo sapiens, UniProt Q9H4A3) | 100 |
| DYRK2 (Homo sapiens, UniProt Q92630) | 91 |
| FGR (Homo sapiens, UniProt P09769) | 100 |
| PRKCQ (Homo sapiens, UniProt Q04759) | 100 |
| HIPK4 (Homo sapiens, UniProt Q8NE63) | 100 |
| PRKCE (Homo sapiens, UniProt Q02156) | 100 |
| NUAK1 (Homo sapiens, UniProt O60285) | 85 |

Sample 2 — read-out: enzyme activity; mode: inhibitor; concentration: 0.5 µM; baseline: control
Target: Tyrosine-protein kinase Fes/Fps (FES, Homo sapiens, UniProt P07332)
Chain of UniProt P07332 (whole entry, looked up): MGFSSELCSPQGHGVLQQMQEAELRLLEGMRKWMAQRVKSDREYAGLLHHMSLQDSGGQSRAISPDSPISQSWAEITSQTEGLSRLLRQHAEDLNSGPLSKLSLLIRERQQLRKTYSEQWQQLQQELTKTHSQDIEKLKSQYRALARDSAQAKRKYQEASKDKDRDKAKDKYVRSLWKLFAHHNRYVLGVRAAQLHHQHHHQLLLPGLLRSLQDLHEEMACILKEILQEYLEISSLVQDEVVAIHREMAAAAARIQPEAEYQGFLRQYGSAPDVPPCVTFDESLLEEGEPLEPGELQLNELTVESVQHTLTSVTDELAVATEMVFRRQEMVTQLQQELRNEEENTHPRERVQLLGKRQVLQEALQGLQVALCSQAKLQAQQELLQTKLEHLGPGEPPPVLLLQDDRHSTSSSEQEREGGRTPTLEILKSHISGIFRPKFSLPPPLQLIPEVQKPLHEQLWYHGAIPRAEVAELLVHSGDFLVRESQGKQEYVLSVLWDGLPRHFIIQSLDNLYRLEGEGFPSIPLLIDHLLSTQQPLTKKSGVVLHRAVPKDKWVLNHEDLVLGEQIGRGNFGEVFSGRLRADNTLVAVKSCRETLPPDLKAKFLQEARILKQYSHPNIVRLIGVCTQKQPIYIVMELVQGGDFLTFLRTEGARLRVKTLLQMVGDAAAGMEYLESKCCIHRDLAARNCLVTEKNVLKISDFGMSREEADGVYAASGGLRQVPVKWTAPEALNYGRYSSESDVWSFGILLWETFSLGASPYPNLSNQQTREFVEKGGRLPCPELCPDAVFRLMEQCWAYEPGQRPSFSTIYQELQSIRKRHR
| Structure (SMILES) | remaining activity [%] |
| --- | --- |
| Cc1nc2cc3nc(-c4cccs4)cnc3cc2n1C | 106 |
| CCN(CC)C(=O)c1ccc(Nc2nc(OCC3CCCCC3)c3[nH]cnc3n2)cc1 | 63.2 |
| CN(C)C[C@H]1CCn2c(c(C3=C(c4cn(C)c5ccccc45)C(=O)NC3=O)c3ccccc32)C1 | 102 |
| N#C/C(=C\c1ccc(O)c(O)c1)C(=O)NCc1ccccc1 | 101 |
| CCOc1nc(NC(=O)Cc2cc(OC)ccc2OC)cc(N)c1C#N | 91 |
| COc1cc2ncnc(Nc3cccc(Cl)c3)c2cc1OC | 104 |
| Nc1cccc(-c2cc3c(Oc4cccc(O)c4)ncnc3[nH]2)c1 | 73.8 |
| Ic1cccc(CSc2nnc(-c3ccncc3)o2)c1 | 98 |
| O=C(Nc1cccc(Nc2nccc(Nc3cccc(C(F)(F)F)c3)n2)c1)C1CC1 | 94.3 |
| c1ccc(-c2[nH]ncc2-c2ccnc3ccccc23)nc1 | 111 |
| Cc1cn(-c2cc(NC(=O)c3ccc(C)c(Nc4nccc(-c5cccnc5)n4)c3)cc(C(F)(F)F)c2)cn1 | 95.9 |
| O=C(NC(NC(=S)Nc1ccc(F)c([N+](=O)[O-])c1)C(Cl)(Cl)Cl)C(c1ccccc1)c1ccccc1 (stereo not shown) | 104 |
| Cn1nc2c3c(cccc31)C(=O)c1ccccc1-2 | 94.4 |
| CCN(CC)CCNC(=O)c1c(C)[nH]c(/C=C2\C(=O)Nc3ccc(Cl)cc32)c1C | 22.1 |
| c1ccc(-c2cnc(Nc3ccc(OCCN4CCCC4)cc3)s2)cc1 | 93.2 |
| CN([C@@H](Cc1ccc(OS(=O)(=O)c2cccc3cnccc23)cc1)C(=O)N1CCN(c2ccccc2)CC1)S(=O)(=O)c1cccc2cnccc12 | 97.7 |
| C[C@@H]1CCN(C(=O)CC#N)C[C@@H]1N(C)c1ncnc2[nH]ccc12 | 104 |
| COc1cc2c(cc1OC)-c1[nH]nc(Nc3cccc(F)c3)c1C2 | 95.6 |
| O=C1c2ccccc2-c2n[nH]c3cccc1c23 | 64.3 |
| Cc1cc2ncc(-c3ccccc3)nc2cc1C | 97.3 |
| N#Cc1c(NC(=O)c2cccc3ccccc23)sc2c1CCCC2 | 102 |
| O=C1C(Cl)=C(N2C(=O)CCC2=O)C(=O)c2ccccc21 | 97.5 |
| COc1cc2ncnc(Nc3ccc(O)c(Br)c3)c2cc1OC | 94.9 |

Sample 3 — cell line: HaCaT; concentration: 100 µM; time: 18 h
| Compound | viability [%] |
| --- | --- |
| COc1cc2c(cc1Cc1cccc(Cl)c1F)c(=O)c(C(=O)O)cn2[C@H](CO)C(C)C | 95.6 |
| Cc1onc(-c2c(Cl)cccc2Cl)c1C(=O)N[C@@H]1C(=O)N2[C@@H]1SC(C)(C)[C@@H]2C(=O)O | 114 |
| c1ccc2c(c1)CCCC2C1=NCCN1 (stereo not shown) | 113 |
| COc1ccc(-n2nc(C(N)=O)c3c2C(=O)N(c2ccc(N4CCCCC4=O)cc2)CC3)cc1 | 82 |
| CCCCCCCCCCCCCCCCOP(=O)([O-])OCC[N+](C)(C)C | 73.1 |
| O=C(O)CN(CCN(CC(=O)O)CC(=O)O)CC(=O)O | 108 |
| Nc1ccc(/N=N/c2ccccc2)c(N)n1 | 85.9 |
| COc1cc(NS(=O)(=O)c2ccc(N)cc2)nc(OC)n1 | 87 |
| Cc1cccc(N(C)C(=S)Oc2ccc3ccccc3c2)c1 | 100 |
| CCC(=O)O[C@]1(C(=O)SCF)[C@H](C)C[C@H]2[C@@H]3C[C@H](F)C4=CC(=O)C=C[C@]4(C)[C@@]3(F)[C@@H](O)C[C@@]21C | 86.4 |
| CN(C)CCOc1ccc(/C(=C(/CCCl)c2ccccc2)c2ccccc2)cc1 | 15.7 |

Single results of other studies
| Structure (SMILES) | cell line | test | setting | how to read | endpoint | result |
| --- | --- | --- | --- | --- | --- | --- |
| Ic1ccc(Nc2nc(NCCN3CCOCC3)nc(N3CCOCC3)n2)cc1 | Gaucher fibroblasts | qPCR, item: GBA1 mRNA | 1 µM, unit not given | baseline: vehicle | mRNA level | 0.684 and 1.58 and 1.06 and 1.12 |

Repeated from above (sample 2):
| Structure (SMILES) | remaining activity [%] |
| --- | --- |
| Cc1cc2ncc(-c3ccccc3)nc2cc1C | 97.3 |
| Cn1nc2c3c(cccc31)C(=O)c1ccccc1-2 | 94.4 |
| c1ccc(-c2cnc(Nc3ccc(OCCN4CCCC4)cc3)s2)cc1 | 93.2 |
